# Measured values pooled from the literature.
# Numbered parts are unrelated; each lists some results of a single study. Changes are numbered by the printed parent chain.

# Sample 1 — target: OGT, full length, His-tagged (human); method: phage display, sequencing; medium: in vitro; concentration: 1 µg OGT; baseline: input library; reading: higher = stronger binding
# Notes: single substitutions, 15-mer displayed peptide, unchanged parent 5.27
# Starting sequence: peptide; GDFPVMFMPKYSIIY; partner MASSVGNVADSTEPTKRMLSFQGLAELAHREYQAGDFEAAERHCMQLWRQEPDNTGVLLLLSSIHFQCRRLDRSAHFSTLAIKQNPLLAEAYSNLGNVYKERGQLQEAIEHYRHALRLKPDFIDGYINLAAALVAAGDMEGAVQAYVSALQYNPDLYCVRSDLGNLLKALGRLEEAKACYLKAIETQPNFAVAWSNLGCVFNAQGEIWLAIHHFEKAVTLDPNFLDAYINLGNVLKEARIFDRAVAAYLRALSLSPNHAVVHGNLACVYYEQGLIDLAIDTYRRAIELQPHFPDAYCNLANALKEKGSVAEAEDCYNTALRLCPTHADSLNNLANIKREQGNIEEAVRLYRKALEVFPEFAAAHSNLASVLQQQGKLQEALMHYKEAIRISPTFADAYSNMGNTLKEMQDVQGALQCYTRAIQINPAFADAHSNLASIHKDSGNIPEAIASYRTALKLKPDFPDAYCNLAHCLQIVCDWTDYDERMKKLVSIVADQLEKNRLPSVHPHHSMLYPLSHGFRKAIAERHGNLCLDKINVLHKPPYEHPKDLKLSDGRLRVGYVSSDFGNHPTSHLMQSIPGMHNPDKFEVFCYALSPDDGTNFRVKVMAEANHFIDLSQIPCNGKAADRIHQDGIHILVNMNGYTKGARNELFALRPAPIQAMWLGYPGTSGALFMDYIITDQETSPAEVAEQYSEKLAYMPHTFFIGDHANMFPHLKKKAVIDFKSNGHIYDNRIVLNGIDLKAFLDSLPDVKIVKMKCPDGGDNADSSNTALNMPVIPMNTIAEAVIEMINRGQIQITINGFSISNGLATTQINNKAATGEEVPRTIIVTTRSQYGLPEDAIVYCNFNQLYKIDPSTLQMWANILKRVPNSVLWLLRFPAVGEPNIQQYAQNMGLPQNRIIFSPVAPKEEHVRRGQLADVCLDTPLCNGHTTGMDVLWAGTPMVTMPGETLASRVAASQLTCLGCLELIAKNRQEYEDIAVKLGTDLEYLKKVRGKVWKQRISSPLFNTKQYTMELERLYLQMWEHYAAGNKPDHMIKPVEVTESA
Variant,fold enrichment [fold]
M6Q,7.29
Y11F,3.8
S12F,6
P9F,2.92
F3N,5.58
K10W,3.23
V5D,4.83
K10M,3.2
M6T,3.3
F7E,0.761
S12Q,17.3
I13L,1.28
K10R,1.47
Y11E,0.993
K10T,1.16
F7P,0.884
Y11N,0.784
F3H,7.44
P9D,1.57
I14V,3.77
G1M,5.39

# Sample 2 — target: CCNB3, cyclin fold, Cln2 fusion (human); method: yeast growth competition, sequencing; medium: yeast; notes: strong parent motif; baseline: not given; reading: higher = stronger binding
# Starting sequence: PKN2 docking peptide (human); VSAVRKLDFSDTM
Variant,normalised enrichment score
L7A,-0.11
D11P,1.62
S10Q,0.981
R5S,0.0305
R5T,0.0427
K6G,0.197
D11E,1.59
R5P,0.2
K6M,0.339
S10C,1.11
L7Q,0.0848
D8K,0.729
S10A,1.32
T12R,1.59
F9E,0.0528
L7I,0.699
S2I,1.48
V4R,3.83
D8I,0.703
D8V,1.1
D11S,2.07
D11A,2.22
S2N,1.74
K6T,1.59
V4E,-0.103

# Sample 3 — method: protein binding microarray; form: double-stranded DNA, one strand shown; medium: in vitro; concentration: not given; baseline: not given; reading: higher = stronger binding
# Target: Histone acetyltransferase KAT6A, both winged helices, GST fusion (KAT6A, Homo sapiens, UniProt Q92794, residues 1-181)
# Notes: 8-mer, flanks averaged, mean of 2 arrays, mostly near background
# Target sequence (chain): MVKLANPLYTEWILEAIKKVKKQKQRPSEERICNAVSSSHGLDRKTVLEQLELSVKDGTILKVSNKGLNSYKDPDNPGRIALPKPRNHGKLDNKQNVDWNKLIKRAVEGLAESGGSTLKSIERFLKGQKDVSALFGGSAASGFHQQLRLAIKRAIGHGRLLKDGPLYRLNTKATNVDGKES
Oligonucleotide,E-score
ATGATGCA,-0.149
CCTAAGCC,-0.122
ATCATACC,0.0221
GAGGGGGA,-0.278
GCTTCCAC,0.0622
ACCATGCA,-0.0656
CGGAGACG,0.293
AATTCTCC,-0.0153
ACGATATA,-0.0834
TAAAATTA,-0.0493
GCAATCAA,-0.0601
AATCAAAA,-0.106
ATCGTTAG,0.0314
TATGGCAA,-0.00561
ATCACTTA,-0.106
CTCCCGTC,0.19
GGAATTGA,-0.0791
CAGTTAAC,0.22
ATCTTCGG,0.022
ACCGAACC,-0.0285
GAGCCAGA,-0.177
CATACGGA,0.148
AGTGGAGC,-0.0793
AATCGGAA,0.0964
ACGTGGAG,-0.226

# Sample 4 — method: protein-binding microarray; form: double-stranded DNA, one strand shown; medium: in vitro; concentration: 250 nM; notes: 60-bp whole probe; added: salmon DNA 0.4 mg/ml; baseline: random background probes; reading: higher = stronger binding; constant ends, left off below: GCCTAGCAC … GTCTTGATTCGCTTGACGCTGCTG
# Target: Interferon regulatory factor 7, full length, phosphomimetic (IRF7, Homo sapiens, UniProt Q92985, residues 1-503, S101K/S471D/S472D/S475D/S476D/S477D/S483D/S484D/S487D)
# Residues (chain): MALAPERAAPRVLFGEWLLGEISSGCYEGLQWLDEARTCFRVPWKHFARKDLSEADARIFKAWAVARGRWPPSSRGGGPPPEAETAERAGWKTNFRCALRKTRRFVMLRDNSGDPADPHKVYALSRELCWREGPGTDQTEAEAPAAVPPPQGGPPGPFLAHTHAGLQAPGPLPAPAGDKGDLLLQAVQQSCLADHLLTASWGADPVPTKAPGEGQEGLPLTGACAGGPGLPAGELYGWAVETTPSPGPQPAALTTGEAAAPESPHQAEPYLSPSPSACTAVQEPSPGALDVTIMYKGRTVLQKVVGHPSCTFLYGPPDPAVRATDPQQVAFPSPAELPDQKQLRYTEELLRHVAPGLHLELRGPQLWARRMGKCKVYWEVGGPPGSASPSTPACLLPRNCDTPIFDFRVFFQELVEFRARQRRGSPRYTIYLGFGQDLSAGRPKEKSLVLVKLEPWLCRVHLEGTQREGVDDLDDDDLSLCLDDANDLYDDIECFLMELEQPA
Oligonucleotide,log fluorescence
GCTCCTCTTTTTTTGGTAATGTGCTAG,1.21 z-score
CATTTTCTCTGTTCTAGAAGGTGCTAG,3.72 z-score
TTAGGTATCGACACTGCGTTAGTGCTA,-0.233 z-score
TTAGGTCTCCGTATCCTTTAGTGCTAG,0.604 z-score
TTAGGTCTGCTTCTCCTTTAGTGCTAG,0.44 z-score
TTAGACCTGAGTTTCGATTAGTGCTAG,7.6 z-score
GACGATATCTGTTTCGAGACGTGCTAG,1.58 z-score
TTAGGTATCGGTCTCTGTTAGTGCTAG,1.87 z-score
TTAGGACTGGGTTTCGGTTCGTGCTAG,10.1 z-score
TAAGGACTGCTTCTCCTTTAGTGCTAG,0.717 z-score
CACTATTTAAGAACTATGCACGTGCTA,0.542 z-score
TTAGGTTCCGGTTTCTGTTAGTGCTAG,9.18 z-score
GACGGACTGCTTCTCCTAACGTGCTAG,-0.0113 z-score
TTAGGTTTCGGGACTAGGTTAGTGCTA,3.83 z-score
TCAGCATACCATATCAGACTGTGCTAG,-0.418 z-score
GACGGTTTCGTCTATCGGGACGTGCTA,4.23 z-score
TTAGGTTTCCTTTCCCGTTAGTGCTAG,4.83 z-score
GACGGTACCGGTCTCGGGACGTGCTAG,0.304 z-score
TCACATTTTTTTTGCAAACTGTGCTAG,0.987 z-score
CAACATCTGCAAGATCCACAAGTGCTA,-0.356 z-score

# Sample 5 — method: aptamer microarray, sandwich; form: DNA with 2'F-ANA; medium: in vitro; concentration: 200 nM; added: Cy3 exosite-II aptamer, 400 nM; reading: higher = stronger binding; oligonucleotide: GGTTGGTGTGGTTGG
# Target: Prothrombin, mature alpha-thrombin (F2, Homo sapiens, UniProt P00734)
# Notes: whole 15-mer aptamer, many near background
Modification,mean fluorescence intensity
2'F-ANA at 12 13 14 15,254 a.u.
2'F-ANA at 1 3 6 7 8 9 11 12 15,366 a.u.
2'F-ANA at 1 2 3 5 8 10 11 13,49.2 a.u.
2'F-ANA at 1 2 4 5 7 10 14 15,48.5 a.u.
2'F-ANA at 2 3 4 5 6 8 9 12 15,176 a.u.
2'F-ANA at 1 2 3 8 10 11 12 13 14 15,300 a.u.
2'F-ANA at 1 2 4 7 10 11 15,53.9 a.u.
2'F-ANA at 1 3 5 9 13 15,50.7 a.u.
2'F-ANA at 1 2 4 5 6 8 14,46.7 a.u.
2'F-ANA at 2 3 5 6 10 11 15,47.6 a.u.
2'F-ANA at 7 8 10 13 14,170 a.u.
2'F-ANA at 1 2 3 6 7 8 10,97.4 a.u.
2'F-ANA at 3 4 7 8 9 12,1220 a.u.
2'F-ANA at 2 4 5 7 9 10 11 12 15,51 a.u.
2'F-ANA at 3 5 7 9 10 14,62.5 a.u.
2'F-ANA at 1 2 3 6 7 8 9 11,431 a.u.
2'F-ANA at 3 4 15,782 a.u.
2'F-ANA at 1 4 5 6 11 14,48.9 a.u.
2'F-ANA at 1 2 3 4 6 7 8 9 10 11,69.9 a.u.
2'F-ANA at 1 4 6,114 a.u.
2'F-ANA at 2 3 4 7 8 9 10 11,295 a.u.
2'F-ANA at 1 2 3 4 5 10 11 12 13 14 15,45.4 a.u.
2'F-ANA at 1 2 4 7 11 12,226 a.u.
2'F-ANA at 1 4 5 6 12 13 15,73.7 a.u.
2'F-ANA at 1 3 5 6 7 9 10 13 14,46.6 a.u.

# Excerpt of the above (sample 2):
Variant,normalised enrichment score
S10Q,0.981
R5S,0.0305
R5T,0.0427
K6G,0.197
D11E,1.59
R5P,0.2
K6M,0.339
S10C,1.11
L7Q,0.0848
D8K,0.729
S10A,1.32
T12R,1.59
F9E,0.0528
L7I,0.699
S2I,1.48
V4R,3.83
D8I,0.703
D8V,1.1
D11S,2.07
